Measurements gathered from unrelated publications.
Each line is one published result; not all experiments were run side by side. ± marks the error that the study gave.
Organism: Escherichia coli

| SMILES | assay | test system | setting | MIC |
| --- | --- | --- | --- | --- |
| CC[C@H](C)[C@H](NC(=O)[C@H](CCCNC(=N)N)NC(=O)[C@H](CCCCN)NC(=O)[C@H](CC(C)C)NC(=O)[C@H](Cc1ccccc1)NC(=O)[C@H](CCCNC(=N)N)NC(=O)[C@H](C)NC(=O)[C@@H](N)C(C)C)C(=O)N[C@H](C(=O)N[C@@H](CCCCN)C(=O)N[C@@H](C)C(=O)N[C@@H](CC(C)C)C(=O)N[C@@H](Cc1ccccc1)C(N)=O)[C@@H](C)CC | – | ATCC 25922 | 1 h, 37 °C, non-dividing cells in PBS | 6.25 µg/mL |
| CC[C@H](C)[C@H](NC(=O)[C@@H]1CCCN1C(=O)[C@H](CCCNC(=N)N)NC(=O)[C@@H]1CCCN1C(=O)[C@@H]1CCCN1C(=O)[C@@H](NC(=O)[C@@H]1CCCN1C(=O)[C@H](CCCNC(=N)N)NC(=O)[C@@H]1CCCN1C(=O)[C@H](CC(C)C)NC(=O)[C@H](Cc1ccc(O)cc1)NC(=O)[C@H](CO)NC(=O)CNC(=O)[C@H](CCCCN)NC(=O)[C@H](CC(=O)O)NC(=O)[C@@H](N)C(C)C)[C@@H](C)O)C(=O)N[C@@H](Cc1ccc(O)cc1)C(=O)N[C@@H](CC(N)=O)C(=O)N[C@@H](CCCNC(=N)N)C(=O)N[C@@H](CC(N)=O)C(=O)O | broth microdilution | BW25113 parental, Mueller-Hinton broth | 18 h, 37 °C | 0.197 ± 0.088 µM |
| CC(C)[C@H](NC(=O)[C@H](CO)NC(=O)[C@H](Cc1c[nH]cn1)NC(=O)[C@H](Cc1ccccc1)NC(=O)[C@H](C)NC(=O)[C@H](CCCCN)NC(=O)CNC(=O)[C@H](Cc1ccccc1)NC(=O)CN)C(=O)N[C@@H](CO)C(=O)N[C@@H](CC(N)=O)C(=O)N[C@@H](Cc1ccccc1)C(=O)N[C@@H](C)C(=O)N[C@@H](CCCCN)C(=O)N[C@@H](CCCCN)C(=O)N[C@@H](Cc1c[nH]cn1)C(=O)N[C@@H](CCCCN)C(=O)N[C@H](C(=O)N[C@@H](C)C(N)=O)[C@@H](C)O | broth microdilution | K12 | 37 °C | > 100 µM |
| CC(C)C[C@H](NC(=O)[C@H](CCCNC(=N)N)NC(=O)[C@@H]1CCCN1C(=O)[C@H](CCCNC(=N)N)NC(=O)[C@@H]1CCCN1C(=O)[C@@H]1CCCN1C(=O)[C@H](CCCNC(=N)N)NC(=O)[C@@H]1CCCN1C(=O)[C@H](CCC(N)=O)NC(=O)[C@@H]1CCCN1C(=O)[C@H](CCCNC(=N)N)NC(=O)[C@H](Cc1ccc(O)cc1)NC(=O)[C@@H](NC(=O)[C@@H]1CCCN1C(=O)[C@H](CCCNC(=N)N)NC(=O)[C@H](CC(N)=O)NC(=O)[C@H](CC(N)=O)NC(=O)CN)C(C)C)C(=O)O | – | JW0368 ΔsbmA | 18 h, 37 °C, 12.5% Mueller-Hinton broth | 0.096 ± 0.023 µM |
| CC[C@H](C)[C@H](NC(=O)CNC(=O)[C@H](CCCNC(=N)N)NC(=O)[C@H](Cc1ccccc1)NC(=O)[C@@H](NC(=O)[C@H](Cc1c[nH]cn1)NC(=O)[C@H](Cc1c[nH]cn1)NC(=O)[C@H](Cc1ccccc1)NC(=O)[C@@H](N)Cc1ccccc1)[C@@H](C)CC)C(=O)N[C@H](C(=O)N[C@@H](Cc1c[nH]cn1)C(=O)N[C@H](C(=O)NCC(=O)N[C@@H](CCCCN)C(=O)N[C@H](C(=O)N[C@@H](C)C(=O)N[C@@H](Cc1c[nH]cn1)C(=O)N[C@@H](CCCNC(=N)N)C(=O)N[C@@H](CC(C)C)C(=O)N[C@H](C(=O)N[C@H](C(=O)NCC(N)=O)[C@@H](C)O)C(C)C)[C@@H](C)O)C(C)C)C(C)C | broth microdilution | ATCC 25922 | 18 h, 37 °C | 3.1 µg/mL |
| CC[C@H](C)[C@H](NC(=O)CN)C(=O)NCC(=O)N[C@@H](CCCCN)C(=O)N[C@@H](Cc1ccccc1)C(=O)N[C@@H](CC(C)C)C(=O)N[C@@H](Cc1c[nH]cn1)C(=O)N[C@@H](CO)C(=O)N[C@@H](C)C(=O)N[C@@H](CCCCN)C(=O)N[C@@H](CCCCN)C(=O)N[C@@H](Cc1ccccc1)C(=O)NCC(=O)N[C@@H](CCCCN)C(=O)N[C@@H](C)C(=O)N[C@@H](Cc1ccccc1)C(=O)N[C@H](C(=O)NCC(=O)N[C@@H](CCC(=O)O)C(=O)N[C@H](C(=O)N[C@@H](CCSC)C(=O)N[C@@H](CC(N)=O)C(=O)N[C@@H](CO)C(=O)O)[C@@H](C)CC)C(C)C | bacterial growth | DH5α | 37 °C | 0.01 µM |
| CC[C@H](C)[C@H](NC(=O)[C@@H]1CCCN1C(=O)[C@H](CCCCN)NC(=O)[C@@H]1CCCN1C(=O)[C@@H]1CCCN1C(=O)[C@@H](NC(=O)[C@@H]1CCCN1C(=O)[C@H](CCCNC(=N)N)NC(=O)[C@@H]1CCCN1C(=O)[C@H](CCCNC(=N)N)NC(=O)[C@H](Cc1ccc(O)cc1)NC(=O)[C@H](CO)NC(=O)CNC(=O)[C@H](CCCCN)NC(=O)[C@H](CC(=O)O)NC(=O)[C@@H](N)C(C)C)[C@@H](C)O)C(=O)N[C@@H](Cc1ccc(O)cc1)C(=O)N[C@@H](CC(N)=O)C(=O)N[C@@H](CCCNC(=N)N)C(=O)N[C@@H](CC(N)=O)C(=O)O | – | JW0013 | 18 h, 37 °C, 12.5% Mueller-Hinton broth | 0.037 ± 0.008 µM |
| CC(C)C[C@H](NC(=O)CN)C(=O)N[C@@H](C)C(=O)N[C@@H](CC(=O)O)C(=O)N[C@@H](Cc1ccccc1)C(=O)N[C@@H](CC(C)C)C(=O)N[C@@H](CC(N)=O)C(=O)N[C@@H](CCCCN)C(=O)N[C@@H](C)C(=O)N[C@H](C(=O)NCC(=O)N[C@@H](CCCCN)C(=O)N[C@H](C(=O)N[C@H](C(=O)N[C@@H](CC(=O)O)C(=O)N[C@@H](Cc1ccccc1)C(=O)N[C@H](C(=O)N[C@@H](CCCCN)C(=O)N[C@@H](CO)C(N)=O)C(C)C)C(C)C)C(C)C)C(C)C | broth microdilution | K12 | 37 °C | > 100 µM |
| CC(C)C[C@H](NC(=O)[C@H](CCCNC(=N)N)NC(=O)[C@H](C)NC(=O)[C@@H](NC(=O)[C@H](CC(C)C)NC(=O)[C@H](Cc1c[nH]cn1)NC(=O)[C@H](CC(C)C)NC(=O)[C@@H](NC(=O)[C@@H](N)CO)[C@@H](C)O)C(C)C)C(=O)N[C@@H](CCCNC(=N)N)C(=O)NCC(=O)NCC(=O)O | – | DH5α | 37 °C, ≥90% viability decrease | > 100 µM |
| CC[C@H](C)[C@H](NC(=O)[C@H](CCCNC(=N)N)NC(=O)[C@H](CCCNC(=N)N)NC(=O)[C@@H]1CCCN1C(=O)[C@@H]1CCCN1C(=O)[C@H](CCCNC(=N)N)NC(=O)[C@@H]1CCCN1C(=O)[C@H](CCCNC(=N)N)NC(=O)[C@@H]1CCCN1C(=O)[C@H](CC(C)C)NC(=O)[C@H](Cc1ccc(O)cc1)NC(=O)[C@@H]1CCCN1C(=O)[C@@H]1CCCN1C(=O)[C@H](CCCCN)NC(=O)[C@H](CC(=O)O)NC(=O)[C@@H](N)C(C)C)C(=O)N[C@@H](Cc1ccc(O)cc1)C(=O)N[C@@H](CC(N)=O)C(=O)N[C@@H](CCCNC(=N)N)C(N)=O | alamarBlue | SQ110 | overnight, 37 °C | 25 µM |
| CC[C@H](C)[C@H](N)C(=O)N[C@H](C(=O)N[C@@H](CCCCN)C(=O)N[C@@H](CCCNC(=N)N)C(=O)N[C@H](C(=O)N[C@@H](CC(C)C)C(=O)N[C@H](C(=O)N[C@@H](CCC(N)=O)C(=O)N[C@@H](CC(C)C)C(=O)N[C@@H](CCCCN)C(=O)N[C@@H](CCCCN)C(=O)N[C@@H](CC(C)C)C(=O)N[C@@H](CC(C)C)C(N)=O)[C@@H](C)CC)[C@@H](C)CC)[C@@H](C)CC | – | ATCC 25922 | 1 h, 37 °C, dividing cells in LB | 25 to 50 µg/mL |
| CC[C@H](C)[C@H](NC(=O)[C@@H]1CCCN1C(=O)[C@H](CCCCN)NC(=O)[C@@H]1CCCN1C(=O)[C@@H]1CCCN1C(=O)[C@@H](NC(=O)[C@@H]1CCCN1C(=O)[C@H](CCCNC(=N)N)NC(=O)[C@@H]1CCCN1C(=O)[C@H](CCCCN)NC(=O)[C@H](Cc1ccc(O)cc1)NC(=O)[C@H](CO)NC(=O)CNC(=O)[C@H](CCCCN)NC(=O)[C@H](CC(=O)O)NC(=O)[C@@H](N)C(C)C)[C@@H](C)O)C(=O)N[C@@H](Cc1ccc(O)cc1)C(=O)N[C@@H](CC(N)=O)C(=O)N[C@@H](CCCNC(=N)N)C(=O)N[C@@H](CC(N)=O)C(=O)O | – | JW0013 | 18 h, 37 °C, 12.5% Mueller-Hinton broth | 0.075 ± 0.018 µM |
| CC(C)C[C@H](NC(=O)[C@H](CCCCN)NC(=O)[C@H](Cc1c[nH]c2ccccc12)NC(=O)[C@H](CCCCN)NC(=O)[C@H](CC(C)C)NC(=O)[C@H](Cc1c[nH]c2ccccc12)NC(=O)[C@H](CC(C)C)NC(=O)[C@H](CCCCN)NC(=O)[C@H](CC(C)C)NC(=O)[C@H](CCCCN)NC(=O)[C@H](CCCCN)NC(=O)[C@@H](N)Cc1c[nH]c2ccccc12)C(=O)N[C@@H](Cc1c[nH]c2ccccc12)C(N)=O | – | ATCC 25922 | 1 h, 37 °C, non-dividing cells in PBS | 1.56 µg/mL |
| CC[C@H](C)[C@H](NC(=O)[C@H](Cc1ccc(O)cc1)NC(=O)[C@@H](NC(=O)[C@@H]1CCCN1C(=O)[C@H](CCCNC(=N)N)NC(=O)[C@H](CC(N)=O)NC(=O)[C@H](CC(N)=O)NC(=O)CN)C(C)C)C(=O)N1CCC[C@H]1C(=O)N[C@@H](CCC(N)=O)C(=O)N1CCC[C@H]1C(=O)N[C@@H](CCCNC(=N)N)C(=O)N1CCC[C@H]1C(=O)N1CCC[C@H]1C(=O)N[C@@H](Cc1c[nH]cn1)C(=O)N1CCC[C@H]1C(=O)N[C@@H](CCCNC(=N)N)C(=O)N[C@@H](CC(C)C)C(=O)O | broth microdilution | BW25113, 5% M9 medium | – | 0.384 ± 0.08 µM |
| CC[C@H](C)[C@H](NC(=O)[C@H](CC(=O)O)NC(=O)[C@H](Cc1ccccc1)NC(=O)[C@H](CC(C)C)NC(=O)CN)C(=O)N[C@H](C(=O)N[C@@H](CCCCN)C(=O)N[C@@H](CCCCN)C(=O)N[C@H](C(=O)N[C@H](C(=O)NCC(=O)N[C@@H](C)C(=O)N[C@@H](CC(C)C)C(=O)NCC(N)=O)C(C)C)C(C)C)C(C)C | – | ATCC 25922, CAMHB | 18 h, 37 °C | > 23 µM |
| CC[C@H](C)[C@H](NC(=O)[C@H](Cc1ccccc1)NC(=O)CN)C(=O)N[C@@H](CCCCN)C(=O)N[C@H](C(=O)N[C@H](C(=O)N[C@@H](CCCNC(=N)N)C(=O)N[C@@H](CCCCN)C(=O)N[C@@H](CC(C)C)C(=O)N[C@@H](CC(C)C)C(=O)N[C@@H](CCCNC(=N)N)C(=O)N[C@@H](CC(C)C)C(=O)N[C@@H](Cc1ccccc1)C(N)=O)C(C)C)[C@@H](C)CC | – | ATCC 25922 | 1 h, 37 °C, dividing cells in LB | 6.25 µg/mL |
| CC[C@H](C)[C@H](NC(=O)[C@H](Cc1c[nH]cn1)NC(=O)[C@H](CCCCN)NC(=O)[C@@H](NC(=O)[C@@H](NC(=O)[C@H](CC(=O)O)NC(=O)[C@H](Cc1ccccc1)NC(=O)[C@H](Cc1c[nH]c2ccccc12)NC(=O)CN)C(C)C)C(C)C)C(=O)N[C@@H](C)C(=O)N[C@@H](CCCCN)C(=O)N[C@@H](CCCNC(=N)N)C(=O)N[C@@H](Cc1ccccc1)C(N)=O | broth microdilution | K12 | 37 °C | 12.5 µM |

For quick reference, copied from above:
| SMILES | assay | test system | setting | MIC |
| --- | --- | --- | --- | --- |
| CC[C@H](C)[C@H](NC(=O)[C@H](Cc1ccc(O)cc1)NC(=O)[C@@H](NC(=O)[C@@H]1CCCN1C(=O)[C@H](CCCNC(=N)N)NC(=O)[C@H](CC(N)=O)NC(=O)[C@H](CC(N)=O)NC(=O)CN)C(C)C)C(=O)N1CCC[C@H]1C(=O)N[C@@H](CCC(N)=O)C(=O)N1CCC[C@H]1C(=O)N[C@@H](CCCNC(=N)N)C(=O)N1CCC[C@H]1C(=O)N1CCC[C@H]1C(=O)N[C@@H](Cc1c[nH]cn1)C(=O)N1CCC[C@H]1C(=O)N[C@@H](CCCNC(=N)N)C(=O)N[C@@H](CC(C)C)C(=O)O | broth microdilution | BW25113, 5% M9 medium | – | 0.384 ± 0.08 µM |
| CC[C@H](C)[C@H](NC(=O)[C@@H]1CCCN1C(=O)[C@H](CCCCN)NC(=O)[C@@H]1CCCN1C(=O)[C@@H]1CCCN1C(=O)[C@@H](NC(=O)[C@@H]1CCCN1C(=O)[C@H](CCCNC(=N)N)NC(=O)[C@@H]1CCCN1C(=O)[C@H](CCCCN)NC(=O)[C@H](Cc1ccc(O)cc1)NC(=O)[C@H](CO)NC(=O)CNC(=O)[C@H](CCCCN)NC(=O)[C@H](CC(=O)O)NC(=O)[C@@H](N)C(C)C)[C@@H](C)O)C(=O)N[C@@H](Cc1ccc(O)cc1)C(=O)N[C@@H](CC(N)=O)C(=O)N[C@@H](CCCNC(=N)N)C(=O)N[C@@H](CC(N)=O)C(=O)O | – | JW0013 | 18 h, 37 °C, 12.5% Mueller-Hinton broth | 0.075 ± 0.018 µM |
